Experimental data of several laboratories.
Each numbered part is a random draw from the data of one study; scales do not carry over between parts.

Series 1
Target: RNA binding protein fox-1 homolog 2, RRM domain, GST-SBP tag (RBFOX2, Homo sapiens, UniProt O43251-10, residues 100-194)
Method: RNA Bind-n-Seq
Molecule type: RNA
Matrix: in vitro
Tested at: 365 nM
Setting: natural RNA segment, single round, ends assumed
Relative to: no-protein control
Reading: higher = stronger binding
Constant ends, left off below: GGGAGUUCUACAGUCCGACGAUC … UGGAAUUCUCGGGUGCCAA
Residues (chain): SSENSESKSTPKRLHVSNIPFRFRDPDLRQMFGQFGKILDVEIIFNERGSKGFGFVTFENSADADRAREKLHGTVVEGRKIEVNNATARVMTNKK
Oligonucleotide | RBNS enrichment (R)
UAGAACUAAAAUGCUCUCUGUACUCUAGUCUCCUGCCUCCUCAGCUCUGCAAGUAGUUUAGUAGGAAUGAAGUGGAAGUCCAGGCUUGGAUUGCCUAACUACACUGCUAA | 2.2
GCCAGACCUUCUGCUACCUCUCAUAGAAUUGCUCUGUAAUUCUAAAUUUAAAAUUAGAAGUAGAGAGAGAUAAGCCAUCGCCCCUUUGCCUCUGAGAAUUGGCUGCUGUU | 1.42
UGAAUUCAAGGGGCAGAUGAAUUUUUGGCAUUGUGUUUUUUCUUACUCAAAAUCUGUUUAUUGGGUUACUGCCCCCAUAAAAAGUAAACAUGACUUUUAAGUAUUUUUUU | 0.739
AAGCUCCCUAGAGGGGCAAAAGAUGGAGUGAGCCACAGGAAGUUUGGGGCGUGGUGAGUUGGAAUGAUACGUCCAUUUCUCUAUGAAAUAUUUGCUACUAGACUGUUCAU | 1.67
CUUUGUUUGCGGUGUACUGAGGGACCGAUGUAUCCACUGGAAUAGUUGGUACUCUCGGACAGGUUUUCUCACUGAGAUGAGCAGAGAAGGGUUUGCACAGGGGAGUGUGA | 1.14
UUUAAAAUCUCUGGCUUCAAAGUUUCUUGGGGAAAGGUCGGUUUACCUCACAUUUUUUGUUUCCAUUAGUAAUAUUCUAGGUACCUCACAAAAUGUAUUAUGGUGCCAUG | 0.296
GAAAACUUGAGACUCCCAAGUUCUGGGCCAGCCCAUUGCUCUGGGCUGUUUUAAAGCCCAUUUCACGAGGAACAAAGAUUUACUUCCUGUCCUGCCAUUCGUGUGCUUCC | 0.311
GCUCAAUCUAGGACUCUCAGCUUCCUGCGCUGCUGGACACAUUGACCUCUGUGCAAACAUUGUAGACUUCUUAUUGCUACUCAAUUCUUGCUACUGCUCAUGAUUCAAAU | 0.648
GACCGAGAGUCUAUAGUGUGAACCUGGCCACCCGUCCGGCCAGGACGUGCCCUGUUGUAUCCUGACAAACCUUAAGCAGUUGAAACCAGUGUCGGCUAAGGCCUUCCUAG | 0.27
ACAUGGCAAAACCCCAUCUCUACUAAAAAUACAAAAAUGAGCUAGGCAUGGUGGCACACGCCUGUAAUCCCAGCUACACCUGAGGCUGAGGCAGGAGAAUUGCUUGAACC | 0.969
UUCAGAAAGGUCAAUUCUCUUCUGUAUUCCCCCUCAACAUUUAUCUGGGUCUAAAGCUCAGCACUGAGUCACAAUUUCACACAAGAUCAAAGUGAGGCAGUGUUAGGAAA | 0.173
CCAGCUUUAAGCACUUUGUAAGACAUGGCUGAAAGUAGCUUUUCUAUCAGAAUUGCAGAUAGUCAUGUUGGGCUAACAGUCAAUUGGAUAUAUUCCUUUACCUCACAUGA | 0.322

Series 2
Target: Sal-like protein 4, full length isoform B (SALL4, Homo sapiens, UniProt Q9UJQ4-2, residues 1-616)
Method: universal PBM
Molecule type: double-stranded DNA, one strand shown
Matrix: in vitro
Tested at: not given
Setting: 8-mer, flanks averaged, mean of replicates
Reading: higher = stronger binding
Construct (chain): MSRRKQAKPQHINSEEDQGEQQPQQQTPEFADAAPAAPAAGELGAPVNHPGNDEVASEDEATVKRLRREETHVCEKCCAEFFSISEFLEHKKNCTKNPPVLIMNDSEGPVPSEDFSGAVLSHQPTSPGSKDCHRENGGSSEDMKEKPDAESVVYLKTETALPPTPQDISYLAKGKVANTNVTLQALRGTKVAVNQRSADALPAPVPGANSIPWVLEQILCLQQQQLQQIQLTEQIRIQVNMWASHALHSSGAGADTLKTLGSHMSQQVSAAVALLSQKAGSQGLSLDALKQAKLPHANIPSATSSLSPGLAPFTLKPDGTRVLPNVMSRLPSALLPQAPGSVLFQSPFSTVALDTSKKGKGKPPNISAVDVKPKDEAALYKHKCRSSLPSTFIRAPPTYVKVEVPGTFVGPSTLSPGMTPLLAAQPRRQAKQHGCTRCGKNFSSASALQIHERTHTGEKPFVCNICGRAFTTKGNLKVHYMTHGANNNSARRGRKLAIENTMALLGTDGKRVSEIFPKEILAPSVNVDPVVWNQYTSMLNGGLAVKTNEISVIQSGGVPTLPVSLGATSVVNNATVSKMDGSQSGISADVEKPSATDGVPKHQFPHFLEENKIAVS
Oligonucleotide | E-score
AGTCACCC | -0.108
ACGCGCCG | -0.321
AAGAGCCA | -0.138
TCTACGCA | 0.068
AGGACCTA | 0.0241
ACGCCAGT | -0.287
CTGAACGC | -0.115
CAACATAG | 0.13
AACCAGTT | 0.141
CACGTAGC | -0.184
AAGCCGAC | -0.233
AGCCCAAC | -0.183
ACTCGCCT | -0.152
GCCATGAA | -0.104
AGCGCCCT | -0.301
TAGAGGCA | 0.0296
GATGATGC | -0.0537
CACAAACC | -0.0761
AGCGCATG | -0.159

Series 3
Target: Ras GTPase-activating protein-binding protein 1, full length (G3BP1, Homo sapiens, UniProt Q13283)
UniProt Q13283, sequence (whole entry, looked up): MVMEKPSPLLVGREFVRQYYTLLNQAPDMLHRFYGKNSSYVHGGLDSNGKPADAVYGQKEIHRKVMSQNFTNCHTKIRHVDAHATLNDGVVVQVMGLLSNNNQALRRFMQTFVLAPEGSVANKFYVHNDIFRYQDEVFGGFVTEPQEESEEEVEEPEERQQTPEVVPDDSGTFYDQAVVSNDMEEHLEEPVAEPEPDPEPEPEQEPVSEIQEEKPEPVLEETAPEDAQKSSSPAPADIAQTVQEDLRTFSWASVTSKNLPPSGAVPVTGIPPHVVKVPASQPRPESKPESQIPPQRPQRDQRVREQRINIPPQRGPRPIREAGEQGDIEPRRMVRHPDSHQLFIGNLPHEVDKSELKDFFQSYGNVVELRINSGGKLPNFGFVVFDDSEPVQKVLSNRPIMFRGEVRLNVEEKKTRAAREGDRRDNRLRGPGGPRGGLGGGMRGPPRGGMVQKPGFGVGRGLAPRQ
Method: RNA Bind-n-Seq
Molecule type: RNA
Matrix: in vitro
Tested at: 200 nM
Setting: whole 134-nt RNA, ends assumed
With: 150 mM LiCl
Relative to: input library
Reading: higher = stronger binding
Library: 7-deaza-guanosine replaces G
Constant ends, left off below: GGGAGUUCUACAGUCCGACGAUC … UGGAAUUCUCGGGUGUCAAGG
Oligonucleotide | log2 enrichment
GCAGGAAGUAAAAACAAAUGGAAAUGCUUCGGAUAGUGGCAGGGGUGGGUGUUGCUAAGGAAAGGGUGGGAUGGGAGUGGGUAAAGAGUU | -0.21
AGUCCUGUGCUACACAUCGUAUGUACCGAAUCGGGAAAGGGUUUGGGUUUUUUUGGGAAAGUAUUAUGUUACGCCGUUCGGAUCUGCACU | -1.54
UGGCCCUGGUGGCAUGCGGGGAGGAAGAUGUGGCCUCAUGGAUCGUGGUGGUCCCGGUGGAAUGUUCAGAGGUGGCCGUGGUGGAGACAG | 0.099
GCAGGAAGUAAAAACAAAUGGAAAUGCUUCGGAUAGUGGCAGGGGUGGGGGUUGCUAAUGAAAGGGUGGGAUGGGAGUGGGUAAAGAGUU | -0.138
UAACUUUAGAGGAGGAUCUGAUGGAUAUGGCAGUGGACGUGGAUUUAGGGAUGGCUAUAAUGGGUAUGGAGGAGGACCUGGAGGUGGCAA | -0.276
UCAAGUCCUGUGCUACACAUCGUAUGUACCGAAUCGGUUUUUGGUUUUUGGUGGAAAGUAUUAUGUUACGCCGUUCGGAUCUGCACUUCC | -0.698
GUCCUGUGCUACACAUCGUAUGUACCGAAUCGGGGAAAAAAGGAAAAAAGGAAAAAAGGAAAGUAUUAUGUUACGCCGUUCGGAUCUGCA | -0.453
UCCUCAAGUCCUGUGCUACACAUCGUAUGUACCGAAUCGGUUUGGAGGUGGAAAGUAUUAUGUUACGCCGUUCGGAUCUGCACUUCCAGC | -0.496
GCAGGAAGUAAAAACAAAUGGAAAUGCUUCGGAUAGUGGAAGGGGUGGGGGUUGCUAAGGAAAGGGUGGGAUGGGAGUGGGUAAAGAGUU | 0.236
AAGUCCUGUGCUACACAUCGUAUGUACCGAAUCGGUUUUUUUGGUUUUUUUGGUGGAAAGUAUUAUGUUACGCCGUUCGGAUCUGCACUU | -1.68
AAGUCCUGUGCUACACAUCGUAUGUACCGAAUCGGGUUUGGGUGGGUUUUUUUGGGAAAGUAUUAUGUUACGCCGUUCGGAUCUGCACUU | -0.403

Series 4
Target: Prothrombin, mature alpha-thrombin (F2, Homo sapiens, UniProt P00734)
Method: aptamer microarray, sandwich
Molecule type: DNA with 2'F-ANA
Matrix: in vitro
Tested at: 200 nM
Setting: whole 15-mer aptamer, many near background
With: Cy3 exosite-II aptamer, 400 nM
Reading: higher = stronger binding
Oligonucleotide: GGTTGGTGTGGTTGG
Modification | mean fluorescence intensity [a.u.]
2'F-ANA at 1 3 4 5 6 7 12 13 14 15 | 49.3
2'F-ANA at 1 2 4 7 8 15 | 181
2'F-ANA at 1 4 5 7 10 12 15 | 46.8
2'F-ANA at 2 3 4 5 7 8 11 12 14 | 53.5
2'F-ANA at 6 7 10 14 15 | 109
2'F-ANA at 1 2 3 5 8 9 11 | 70.9
2'F-ANA at 2 4 7 8 9 10 11 12 13 | 105
2'F-ANA at 1 3 4 5 7 8 9 13 14 15 | 45.2
2'F-ANA at 1 4 5 6 7 8 9 10 12 15 | 50.4
2'F-ANA at 2 3 7 8 12 14 | 733
2'F-ANA at 1 2 3 4 8 12 14 | 87.8
2'F-ANA at 1 2 3 4 6 7 12 13 14 15 | 85.2
2'F-ANA at 2 3 7 10 11 13 | 365
2'F-ANA at 1 2 4 12 13 15 | 204
2'F-ANA at 1 2 6 7 8 12 13 15 | 265
2'F-ANA at 5 10 11 12 | 50
2'F-ANA at 4 5 6 7 8 10 11 14 15 | 55.4
2'F-ANA at 1 4 5 6 7 8 9 10 11 12 13 14 15 | 55.8
2'F-ANA at 2 4 7 9 11 13 14 | 87.5
2'F-ANA at 1 6 10 12 13 15 | 78.2
2'F-ANA at 1 2 3 5 7 12 13 14 | 56.7
2'F-ANA at 1 2 3 5 7 8 9 10 12 14 15 | 136
2'F-ANA at 1 3 9 10 12 13 15 | 109
2'F-ANA at 2 5 11 15 | 61.9
2'F-ANA at 2 4 6 8 9 13 | 158
